Measurements of several laboratories.
Lines come from different studies, so protocols differ. ± marks the error that the study gave. Converted amounts (≈) assume the structure as drawn.

CCCCCCCCCCCCCNCC(=O)N(CCCCCC)CC(=O)N(CCCCN)CC(=O)N(CCN)CC(=O)N(CCCCCC)CC(N)=O
acetonitrile at elution (preparative RP-HPLC C18; water to acetonitrile gradient; 0.05% TFA in eluent; higher = more hydrophobic): 73.3%

Cc1c(CN2CCN(C(=O)[C@H](C)O)CC2)sc2c(N3CCOCC3)nc(-c3cnc(N)nc3)nc12
V2/F (human patients, plasma; oral): 639 L

CC(=O)Nc1ccc(O[C@@H]2O[C@H](C(=O)O)[C@@H](O)[C@H](O)[C@H]2O)cc1
AUC(0-12 h) (healthy volunteers, both sexes, plasma; oral, 650 mg acetaminophen, day 1): 73900 ng·h/mL

CN(C)C(=O)c1cc2cnc(Nc3ccc(N4CCNCC4)cn3)nc2n1C1CCCC1
amount excreted in urine (human, mild renal impairment; oral, 400 mg, 0 to 144 h, geometric mean): 19.9 mg

Cc1nc(Nc2ncc(C(=O)Nc3c(C)cccc3Cl)s2)cc(N2CCN(CCO)CC2)n1
MRT(0-inf) (Sprague-Dawley rat, female, plasma; intraperitoneal, 5 mg/kg, together with: rosiglitazone co-dosed): 6.08 ± 2.03 h

O=C(O)C(c1cc(F)ccc1O)N1Cc2ccccc2C1=O (stereo not shown)
recovery (mouse plasma; 1500 ng/mL, time not given, -30 °C, 3 freeze-thaw cycles, high QC): 99.9 ± 1.5%

C[C@@H](O)[C@H](N)C(=O)O
Π (relative logD) (octanol/phosphate buffer; pH 7.0, N-4-nitrobenzoyl amino acid derivatives; baseline: glycine derivative): 0.07 ± 0.01

C=CC(=C)CCC1(C)C(C)CC(O)C23C(=CC(OC(=O)C(C)CC)CC12)C(OC(C)=O)OC3OC(C)=O (stereo not shown)
haemolysis (haemolysis; 100 µM): 9.5%

COc1cccc2c1C(=O)c1c(O)c3c(c(O)c1C2=O)C[C@@](O)(C(=O)CO)C[C@@H]3O[C@H]1C[C@H](N)[C@H](O)[C@H](C)O1
AUC (mouse, E0771 tumour-bearing, tumor; intravenous, 92 µmol/kg): 1330 µM·h

O=C(/C=C/c1ccc(O)c(O)c1/C=C/c1ccc(O)c(O)c1)O[C@H](Cc1ccc(O)c(O)c1)C(=O)O
MRT(0-t) (UPLC-MS/MS; Wistar rat, microcirculation dysfunction model, plasma; oral, 100 mg/kg Salvia miltiorrhiza stem-leaf extract FS): 8.55 ± 1.65 h

CCOc1ccc(Cc2cc([C@@H]3S[C@H](CO)[C@@H](O)[C@H](O)[C@H]3O)c(OC)cc2C)cc1
elimination rate constant (human, plasma; oral, 5 mg/day, day 1, multiple dose before breakfast): 1.88e-05 ± 3.28e-06 s⁻¹

5(6)-carboxytetramethylrhodamine
fluorescence decrease (water; 0.5 µM, together with: L-tryptophan 50 mM; baseline: no tryptophan): 4 fold

Oc1ccc(-c2nc(-c3ccc(Oc4ccc(C(F)(F)F)cc4)cc3)no2)cc1
distribution half-life (ICR mice, female, plasma; oral, 50 mg/kg): 6 h

CN1CCN(c2ccc3nc(-c4c(N)c5c(F)cccc5[nH]c4=O)[nH]c3c2)CC1
t1/2 (patients, plasma; oral, 300 mg daily 5 days on 2 off, day 19, median, together with: gemcitabine and capecitabine): 13.2 h

COc1ccc(/C=C\c2cc(OC)c(OC)c(OC)c2)cc1OP(=O)(O)O
volume of distribution (rat Sprague-Dawley male, plasma; intravenous, 28 mg/kg): 1.74 ± 0.83 L/kg

O=C1N=C(N2CCOCC2)CN1c1ccc(Cl)cc1
AUC(0-inf) (beagle dog, both sexes, plasma; oral, 30 mg/kg twice daily, day 5, tablets, after 4 days dosing): 61700 ng·h/mL

CCOc1ccc(Cc2cc([C@]34OC[C@](CO)(O3)[C@@H](O)[C@H](O)[C@H]4O)ccc2Cl)cc1
dose excreted unchanged (human, type 2 diabetes, mild renal impairment, urine; oral, 15 mg, 0 to 96 h): 0.72%

CC[C@@H]1CN(C(=O)NCC(F)(F)F)C[C@@H]1c1cnc2cnc3[nH]ccc3n12
pharmacokinetics (population pharmacokinetic model; human; covariates sex, race, pH-modifying drugs, CYP3A inhibitors, methotrexate): no effect

C[C@@H](Oc1ccc(S(C)(=O)=O)cc1C(=O)N1C[C@@H]2C[C@]2(c2cc(C(F)(F)F)on2)C1)C(F)(F)F
trough concentration (human male, plasma; oral, 50 mg once daily, 312 h): 445 nM

CS/C(S)=N/CCCC[S+](C)[O-] (racemic)
mRNA fold change (RT-PCR, measured: Cyp2c7; rat, mammary gland; oral gavage, 200 mg/kg, dosed for four days; baseline: vehicle): 0.045

C=CC(N)CCC(=O)O (stereo not shown)
AUC(0-inf) (male Sprague-Dawley rat, plasma; oral, 1.0 mg/kg, formulation 1): 1750 ± 96 ng·h/mL

CNC(=O)c1cccc2cc(Oc3ccnc4cc(OCC5(N)CC5)c(OC)cc34)ccc12
Vss/F (human; oral, 10 mg, cycle 1 day 15, multiple dose, intermittent arm): 55.8 ± 17.9 L

[2H]C([2H])([2H])Oc1cc2c(cc1OC([2H])([2H])[2H])C1CC(=O)C(CC(C)C)CN1CC2 (stereo not shown)
dose-normalized Cmax (measured: deuterated total (α+β)-HTBZ; healthy human volunteers, plasma; oral, 6 mg single dose, standard meal): 2.5 ng/mL

Cc1nc2cccc(OCC(C)(C)C(=O)NC(C)C)c2c(N)c1C(=O)O
excreted dose (Sprague-Dawley rat, both sexes, feces; oral, 10 mg/kg): 88.4%

CCCC[C@@H]1NC(=O)[C@@H](NC(=O)[C@H](CCC(=O)O)NC(=O)CNC(=O)CN2CCN(CC(=O)O)CCN(CC(=O)O)CCN(CC(=O)O)CC2)CCCCNC(=O)C[C@@H](C(N)=O)NC(=O)[C@H](C(C)C)NC(=O)[C@@H]2CCCN2C(=O)[C@H](CCCNC(=N)N)NC(=O)CNC(=O)[C@H](Cc2c[nH]c3ccccc23)NC(=O)[C@H](CCCNC(=N)N)NC(=O)[C@@H](Cc2ccccc2)NC(=O)[C@H](Cc2c[nH]cn2)NC(=O)[C@H](CCC(=O)O)NC1=O [indium-111 labelled]
tissue uptake (C57 mice, B16/F10 lung metastatic melanoma, spleen; intravenous, 0.037 MBq, 24 h): 0.04 ± 0.03 %ID/g

CN(C)C(=O)c1cc2cnc(Nc3ccc(N4CCNCC4)cn3)nc2n1C1CCCC1
AUCtau (human, plasma; 600 mg, steady state, geometric mean, together with: binimetinib): 30700 ng·h/mL

CC1(C)C=Cc2c(ccc3c2OC[C@@H](c2ccc(O)cc2O)C3)O1
intrinsic clearance (glucuronidation, measured: M2 formation; Sprague-Dawley rat, male, rat intestinal microsomes; pH 7.4): 5000 µL/min/mg

COc1cc(Nc2ncc3c(n2)-c2ccc(Cl)cc2C(c2c(F)cccc2OC)=NC3)ccc1C(=O)O
trough concentration (children, UGT1A1 intermediate or poor metabolizers, grade ≥2 toxicity, plasma; oral, 80 mg/m2, day 4): 1870 ± 820 nM

CCCS(=O)(=O)Nc1ccc(F)c(C(=O)c2c[nH]c3ncc(-c4ccc(Cl)cc4)cc23)c1F
unbound fraction in incubation (rapid equilibrium dialysis; 100% human plasma; 500 µM, 4 h): 1.31e-05 ± 4.1e-06

COc1ccc(-n2nc(C(N)=O)c3c2C(=O)N(c2ccc(N4CCCCC4=O)cc2)CC3)cc1
Cmin (healthy Chinese subjects; oral, 10 mg twice daily, 12 h, day 9): 116 ng/mL

C[N+]1(CC(=O)OC2CCCCCCCCCCC2)CCCCC1.[I-]
aqueous solubility (phosphate buffer with 2% DMSO; 90 min, pH 7.4, theoretical maximum 200 µM): 177 µM

C=CC(=O)Nc1cc(Nc2nccc(-c3cn(C)c4ccccc34)n2)c(OC)cc1N(C)CCN(C)C
MRT(0-inf) (Sprague-Dawley rat, male, plasma; oral, 10 mg/kg, together with: avitinib 30 mg/kg single dose on day 7): 11.3 ± 0.88 h

O=C(O)CN(CC(=O)O)Cc1cc2c(cc1O)Oc1cc(O)c(CN(CC(=O)O)CC(=O)O)cc1C21OC(=O)c2ccccc21
permeation (FCS; POPS/POPC giant vesicles; 20 nM, 30 min, pH 7.4, negative membrane potential, together with: Ru(C17)2^2+ 10 µM): 14%

Cc1c2c(n(-c3ccc(Cl)cc3Cl)c1-c1ccc(OS(=O)(=O)CCC(F)(F)F)cc1)CCN(N1CCCCC1)C2=O
plasma concentration (LC-MS/MS; cynomolgus monkey 5, plasma; intravenous infusion, 0.6 mg/kg, 90 min, total concentration mid-point of PET): 252 nM

CC1(C)S[C@@H]2[C@H](NC(=O)[C@H](N)c3ccc(O)cc3)C(=O)N2[C@H]1C(=O)O
AUC (male ICR mouse, kidney; oral, 3 mg/kg, 24 h): 23100 ng·h/mL

CS(=O)(=O)n1cc2c(n1)CN([C@H]1CO[C@H](c3cc(F)ccc3F)[C@@H](N)C1)C2
alpha-phase half-life (human, plasma; oral, single doses): 40 to 50 h

Cc1nc(-c2ccc(OCC(C)C)c(C#N)c2)sc1C(=O)O
AUC(0-24) (adults with gout, plasma; oral, 40 mg, together with: verinurad 20 mg): 2520 ng·h/mL

COc1cccc(-c2ccc(NC(=O)C3=C(C(=O)O)CCC3)c(F)c2)c1
AUC(0-t) (human male, plasma; oral, 30 mg once daily, day 13, geometric mean): 189000 ng·h/mL

O=C1CCc2ccccc2CC(=O)c2ccccc2N1
kinetic solubility (nephelometry; aqueous buffer; 30 min, pH 6.5): 25 to 50 µg/mL (≈ 94.2 to 188 µM)

COc1c(C)c2c(c(O)c1C/C=C(\C)CCC(=O)O)C(=O)OC2
trough concentration (stable kidney transplant recipients, plasma; oral, dose not given, 12 h post-dose, steady state, together with: cyclosporine): 2030 ± 1500 ng/mL

Repeated from above:
Oc1ccc(-c2nc(-c3ccc(Oc4ccc(C(F)(F)F)cc4)cc3)no2)cc1
distribution half-life (ICR mice, female, plasma; oral, 50 mg/kg): 6 h

CN1CCN(c2ccc3nc(-c4c(N)c5c(F)cccc5[nH]c4=O)[nH]c3c2)CC1
t1/2 (patients, plasma; oral, 300 mg daily 5 days on 2 off, day 19, median, together with: gemcitabine and capecitabine): 13.2 h
